Measurements pooled from the literature.
Numbered parts are unrelated; each lists some results of a single study.

Series 1 — method: protein binding microarray; form: double-stranded DNA, one strand shown; matrix: in vitro; tested at: not given; baseline: not given; reading: higher = stronger binding
Target: Histone acetyltransferase KAT6A, winged helix 1, GST fusion (KAT6A, Homo sapiens, UniProt Q92794, residues 1-85)
Setting: 8-mer, flanks averaged, mean of 2 arrays, mostly near background
Residues (chain): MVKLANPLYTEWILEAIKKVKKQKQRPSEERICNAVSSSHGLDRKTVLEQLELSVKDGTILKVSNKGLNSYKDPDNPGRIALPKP
Sequence	E-score
GTGAGGCA	0.0131
CAGGCCCC	-0.101
AGATGACT	-0.124

Series 2 — method: universal PBM; form: double-stranded DNA, one strand shown; matrix: in vitro; tested at: 600 nM; reading: higher = stronger binding
Target: Sal-like protein 4, full length isoform A (SALL4, Homo sapiens, UniProt Q9UJQ4, residues 1-1053)
Sequence of UniProt Q9UJQ4 (whole entry, looked up): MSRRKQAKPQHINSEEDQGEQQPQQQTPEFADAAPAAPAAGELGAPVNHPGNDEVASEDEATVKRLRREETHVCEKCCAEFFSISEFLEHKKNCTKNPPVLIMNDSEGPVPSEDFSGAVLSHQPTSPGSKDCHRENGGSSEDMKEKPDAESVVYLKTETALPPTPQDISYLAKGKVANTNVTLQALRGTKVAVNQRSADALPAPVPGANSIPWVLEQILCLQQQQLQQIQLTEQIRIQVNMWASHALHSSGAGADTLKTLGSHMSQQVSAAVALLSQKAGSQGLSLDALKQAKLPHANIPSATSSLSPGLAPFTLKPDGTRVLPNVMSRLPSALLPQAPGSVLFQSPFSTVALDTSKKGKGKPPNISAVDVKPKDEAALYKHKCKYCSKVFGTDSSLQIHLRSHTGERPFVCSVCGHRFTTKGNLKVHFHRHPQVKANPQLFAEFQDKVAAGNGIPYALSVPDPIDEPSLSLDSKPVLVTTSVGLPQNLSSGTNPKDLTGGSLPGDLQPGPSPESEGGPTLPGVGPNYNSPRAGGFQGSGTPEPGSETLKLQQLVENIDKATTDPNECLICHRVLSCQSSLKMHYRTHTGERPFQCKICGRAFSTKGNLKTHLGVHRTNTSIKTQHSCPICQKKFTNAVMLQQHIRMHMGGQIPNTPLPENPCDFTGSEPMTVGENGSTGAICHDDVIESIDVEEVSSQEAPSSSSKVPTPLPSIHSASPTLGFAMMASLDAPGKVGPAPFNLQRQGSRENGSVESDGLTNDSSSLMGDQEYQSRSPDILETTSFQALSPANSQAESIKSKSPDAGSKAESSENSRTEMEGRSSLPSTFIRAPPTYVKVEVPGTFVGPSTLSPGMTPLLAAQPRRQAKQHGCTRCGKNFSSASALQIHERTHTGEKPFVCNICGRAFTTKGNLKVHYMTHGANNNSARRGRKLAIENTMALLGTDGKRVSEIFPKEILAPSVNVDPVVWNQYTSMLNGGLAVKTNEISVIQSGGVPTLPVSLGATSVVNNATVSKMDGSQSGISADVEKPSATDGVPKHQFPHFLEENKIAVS
Setting: 8-mer, flanks averaged, mean of replicates
Sequence	E-score
CTACGGCA	-0.187
CTGCACAC	-0.135
GTAGGCCA	-0.111
ACATTCCC	0.0821

Further values, each from its own experiment
Sox2 HMG box: Transcription factor SOX-2, HMG box (Sox2, Mus musculus, UniProt P48432, residues 41-119)
Sequence of UniProt P48432 (41-119, looked up): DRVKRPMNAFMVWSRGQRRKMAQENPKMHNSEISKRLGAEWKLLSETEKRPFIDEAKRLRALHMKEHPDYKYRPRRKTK
Molecule	target	test	system	setting	how to read	endpoint	value
GAGTCGTCTCGTCAGCACCATCGGACCGTAGAGCACTCAGGTC	Sox2 HMG box	Spec-seq	double-stranded DNA, one strand shown, in vitro	not given, whole probe, mean of replicates	baseline: not given, lower = stronger binding	relative binding energy	0.74 ln ratio
PhoQ, residues 284 288 289 292 302 303 AGGLSV	PhoP, residues 12 14 15 18 19 TPWTL (Escherichia coli, UniProt P23836)	Sort-seq, refers to: YFP reporter	E. coli	PhoQ-PhoP variant library, added: 10 µM Mg2+	baseline: high Mg2+ state, higher = stronger signaling	fold induction	1.11
GAGTCGTCTCGTCAGCACCATGCACCCGTAGAGCACTCAGGTC	Sox2 HMG box	Spec-seq	double-stranded DNA, one strand shown, in vitro	not given, whole probe, mean of replicates	baseline: not given, lower = stronger binding	relative binding energy	0.174 ln ratio

For quick reference, copied from above (series 1):
Sequence	E-score
AGATGACT	-0.124
